Earlier results, collected from citations in different studies.
Compare with care: the assays were run in different laboratories. ± gives the spread as reported.

Substance | target | assay | test system | setting | scale | measurement | value
O=C(N[C@H]1COC(=O)[C@@H](NC(=O)c2cccc(O)c2[O-])COC(=O)[C@@H](NC(=O)c2cccc(O)c2[O-])COC1=O)c1cccc(O)c1[O-].[Fe+3] | Escherichia coli ferric siderophore transporters | – | – | – | – | Kd | ~0.1 nM
c1cnc2cc3c(cc2n1)[C@@H]1CNC[C@H]3C1 | α6β2*-nAChR, monkey | [3H]dopamine release, agonist | striatal synaptosomes | – | – | EC50 | 140 nM
CC(=O)N(O)CCC[C@@H]1NC(=O)CNC(=O)CNC(=O)CNC(=O)[C@H](CCCN(O)C(C)=O)NC(=O)[C@H](CCCN(O)C(C)=O)NC1=O.[Fe+3] | Escherichia coli ferric siderophore transporters | substrate | – | – | – | Km | ~0.1 nM
CC[C@H](C)[C@H](NC(=O)[C@H](C)NC(=O)[C@H](CC(N)=O)NC(=O)[C@H](CCCCN)NC(=O)[C@H](Cc1ccccc1)NC(=O)[C@H](CC(C)C)NC(=O)[C@@H](NC(=O)[C@@H](NC(=O)[C@H](CC(C)C)NC(=O)[C@@H]1CCCN1C(=O)[C@@H](NC(=O)[C@H](CCC(N)=O)NC(=O)[C@H](CO)NC(=O)[C@H](CCCCN)NC(=O)[C@H](CCC(=O)O)NC(=O)[C@H](CO)NC(=O)[C@@H](NC(=O)[C@H](CCSC)NC(=O)[C@H](Cc1ccccc1)NC(=O)CNC(=O)CNC(=O)[C@@H](N)Cc1ccc(O)cc1)[C@@H](C)O)[C@@H](C)O)C(C)C)[C@@H](C)O)C(=O)N[C@H](C(=O)N[C@@H](CCCCN)C(=O)N[C@@H](CC(N)=O)C(=O)N[C@@H](C)C(=O)N[C@@H](Cc1ccc(O)cc1)C(=O)N[C@@H](CCCCN)C(=O)N[C@@H](CCCCN)C(=O)NCC(=O)N[C@@H](CCC(=O)O)C(=O)O)[C@@H](C)CC | mu opioid receptor | cAMP inhibition, agonist | – | – | – | EC50 | 30.2 ± 11 nM
CN(C)C(=N)N=C(N)N | dihydrofolate reductase (Escherichia coli) | competitive inhibitor | – | – | – | Ki | 24 mM
Ic1cncc(OC[C@@H]2CCN2)c1 | GABA-A receptor (α4)2(β3)3 | agonist | – | (α4)2(β3)3 form | – | EC50 | ~10 nM
CCOP(=O)(OCC)Oc1nc(Cl)c(Cl)cc1Cl | KIAA1363, mouse | substrate | brain membranes | 1 nM | relative to: knock-out over wild type | hydrolysis fold decrease | 13 fold
O=C(O)CCCC[C@@H]1SC[C@@H]2NC(=O)N[C@@H]21 | streptavidin | atomic force microscopy | – | concentration not given | – | unbinding force | 433 ± 33 pN
O=c1c(I)ccc2n1C[C@@H]1CNC[C@H]2C1 | α4β2 nAChR high-sensitivity form | agonist | Xenopus oocytes | – | – | EC50 | 0.8 nM
5′-methylthioadenosine | Staphylococcus aureus MTAN | substrate | – | second active site | – | Km | 900 nM
CN1CCN(CCc2ccc(Cl)c(Cl)c2)CC1 | sigma-1 receptor | – | – | – | relative to: sigma-2 over sigma-1 | selectivity ratio | ~50 fold
C#CCN(C)CCCOc1ccc(Cl)cc1Cl.Cl | MAOA, rat | 5-HT deamination, inhibitor | rat, brain, ex vivo | subcutaneous, 0.3 mg/kg | – | inhibition | ~90%
CC[C@H](C)[C@H](NC(=O)[C@H](Cc1ccc(O)cc1)NC(=O)[C@@H](NC(=O)[C@@H]1CCCN1C(=O)[C@H](CCCNC(=N)N)NC(=O)[C@H](CC(N)=O)NC(=O)[C@H](CC(N)=O)NC(=O)[C@H](CCCN)N=C(N(C)C)N(C)C)C(C)C)C(=O)N1CCC[C@H]1C(=O)N[C@@H](CCCNC(=N)N)C(=O)N1CCC[C@H]1C(=O)N[C@@H](CCCNC(=N)N)C(=O)N1CCC[C@H]1C(=O)N1CCC[C@H]1C(=O)N[C@@H](Cc1c[nH]cn1)C(=O)N1CCC[C@H]1C(=O)N[C@@H](CCCNC(=N)N)C(=O)N[C@@H](CC(C)C)C(=O)O | Escherichia coli BL21(DE3)RIL ribosome | fluorescence polarization | – | – | – | Kd | 560 ± 60 nM
O=C(N[C@H](CO)[C@H](O)c1ccc([N+](=O)[O-])cc1)C(Cl)Cl | Escherichia coli ribosome | binding, radioligand binding | – | – | – | Kd | 2300 nM
O=c1ccc2ccccc2o1 | rat monoamine oxidase A and B | enzyme activity, inhibitor | – | – | – | AC50 | 15 to 19 µM
Cc1c(COC(=O)[C@@H]2[C@H](/C=C(\Cl)C(F)(F)F)C2(C)C)cccc1-c1ccccc1 (racemic) | human FXR alpha | antagonist, Tox21 qHTS or literature | – | concentration not given | – | activity call | active
NC(=O)[C@@H]1CC[C@@H]2CN1C(=O)N2OS(=O)(=O)O | PBP5/6 | enzyme activity | – | highest concentration 50 µM | – | IC50 | > 50 µM
C[C@]12CC[C@H]3[C@@H](CCC4=CC(=O)C=C[C@@]43O)[C@@H]1CCC2=O | oestrogen receptor alpha | binding, competition binding | – | – | – | EC50 | > 10000 nM

For quick reference, copied from above:
Substance | target | assay | test system | setting | scale | measurement | value
CC(=O)N(O)CCC[C@@H]1NC(=O)CNC(=O)CNC(=O)CNC(=O)[C@H](CCCN(O)C(C)=O)NC(=O)[C@H](CCCN(O)C(C)=O)NC1=O.[Fe+3] | Escherichia coli ferric siderophore transporters | substrate | – | – | – | Km | ~0.1 nM
O=c1c(I)ccc2n1C[C@@H]1CNC[C@H]2C1 | α4β2 nAChR high-sensitivity form | agonist | Xenopus oocytes | – | – | EC50 | 0.8 nM
